Published values collected from several papers.
A part holds a random share of what one study measured. “And” joins repeats or separate records; there may be more than shown.
Chain of UniProt P50613 (whole entry, looked up): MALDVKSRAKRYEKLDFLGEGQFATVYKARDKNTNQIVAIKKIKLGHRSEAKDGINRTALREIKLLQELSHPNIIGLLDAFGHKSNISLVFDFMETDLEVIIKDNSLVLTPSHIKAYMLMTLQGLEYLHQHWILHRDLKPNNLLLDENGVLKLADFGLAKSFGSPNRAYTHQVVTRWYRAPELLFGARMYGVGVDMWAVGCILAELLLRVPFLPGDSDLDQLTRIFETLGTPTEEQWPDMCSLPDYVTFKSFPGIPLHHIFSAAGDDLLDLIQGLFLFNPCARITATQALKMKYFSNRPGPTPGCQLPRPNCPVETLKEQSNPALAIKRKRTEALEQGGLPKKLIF
Chain of UniProt Q9H3Y6 (whole entry, looked up): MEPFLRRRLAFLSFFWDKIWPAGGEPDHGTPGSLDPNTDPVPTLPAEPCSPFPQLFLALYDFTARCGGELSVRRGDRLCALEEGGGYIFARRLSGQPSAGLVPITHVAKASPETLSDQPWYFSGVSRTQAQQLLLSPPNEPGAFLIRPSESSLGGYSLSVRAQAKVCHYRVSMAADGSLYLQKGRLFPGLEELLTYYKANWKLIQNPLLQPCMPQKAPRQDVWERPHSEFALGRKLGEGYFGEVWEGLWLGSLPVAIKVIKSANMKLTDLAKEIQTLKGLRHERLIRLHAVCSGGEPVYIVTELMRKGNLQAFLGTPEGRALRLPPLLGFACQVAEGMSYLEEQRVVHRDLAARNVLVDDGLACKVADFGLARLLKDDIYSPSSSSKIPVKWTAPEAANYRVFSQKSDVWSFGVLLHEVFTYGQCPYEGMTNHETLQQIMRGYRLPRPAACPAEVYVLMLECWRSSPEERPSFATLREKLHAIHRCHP

Block 1 — read-out: enzyme activity; action: inhibitor; concentration: 0.5 µM; reference: control
Target: Serine/threonine-protein kinase MRCK alpha (CDC42BPA, Homo sapiens, UniProt Q5VT25)
Chain of UniProt Q5VT25 (whole entry, looked up): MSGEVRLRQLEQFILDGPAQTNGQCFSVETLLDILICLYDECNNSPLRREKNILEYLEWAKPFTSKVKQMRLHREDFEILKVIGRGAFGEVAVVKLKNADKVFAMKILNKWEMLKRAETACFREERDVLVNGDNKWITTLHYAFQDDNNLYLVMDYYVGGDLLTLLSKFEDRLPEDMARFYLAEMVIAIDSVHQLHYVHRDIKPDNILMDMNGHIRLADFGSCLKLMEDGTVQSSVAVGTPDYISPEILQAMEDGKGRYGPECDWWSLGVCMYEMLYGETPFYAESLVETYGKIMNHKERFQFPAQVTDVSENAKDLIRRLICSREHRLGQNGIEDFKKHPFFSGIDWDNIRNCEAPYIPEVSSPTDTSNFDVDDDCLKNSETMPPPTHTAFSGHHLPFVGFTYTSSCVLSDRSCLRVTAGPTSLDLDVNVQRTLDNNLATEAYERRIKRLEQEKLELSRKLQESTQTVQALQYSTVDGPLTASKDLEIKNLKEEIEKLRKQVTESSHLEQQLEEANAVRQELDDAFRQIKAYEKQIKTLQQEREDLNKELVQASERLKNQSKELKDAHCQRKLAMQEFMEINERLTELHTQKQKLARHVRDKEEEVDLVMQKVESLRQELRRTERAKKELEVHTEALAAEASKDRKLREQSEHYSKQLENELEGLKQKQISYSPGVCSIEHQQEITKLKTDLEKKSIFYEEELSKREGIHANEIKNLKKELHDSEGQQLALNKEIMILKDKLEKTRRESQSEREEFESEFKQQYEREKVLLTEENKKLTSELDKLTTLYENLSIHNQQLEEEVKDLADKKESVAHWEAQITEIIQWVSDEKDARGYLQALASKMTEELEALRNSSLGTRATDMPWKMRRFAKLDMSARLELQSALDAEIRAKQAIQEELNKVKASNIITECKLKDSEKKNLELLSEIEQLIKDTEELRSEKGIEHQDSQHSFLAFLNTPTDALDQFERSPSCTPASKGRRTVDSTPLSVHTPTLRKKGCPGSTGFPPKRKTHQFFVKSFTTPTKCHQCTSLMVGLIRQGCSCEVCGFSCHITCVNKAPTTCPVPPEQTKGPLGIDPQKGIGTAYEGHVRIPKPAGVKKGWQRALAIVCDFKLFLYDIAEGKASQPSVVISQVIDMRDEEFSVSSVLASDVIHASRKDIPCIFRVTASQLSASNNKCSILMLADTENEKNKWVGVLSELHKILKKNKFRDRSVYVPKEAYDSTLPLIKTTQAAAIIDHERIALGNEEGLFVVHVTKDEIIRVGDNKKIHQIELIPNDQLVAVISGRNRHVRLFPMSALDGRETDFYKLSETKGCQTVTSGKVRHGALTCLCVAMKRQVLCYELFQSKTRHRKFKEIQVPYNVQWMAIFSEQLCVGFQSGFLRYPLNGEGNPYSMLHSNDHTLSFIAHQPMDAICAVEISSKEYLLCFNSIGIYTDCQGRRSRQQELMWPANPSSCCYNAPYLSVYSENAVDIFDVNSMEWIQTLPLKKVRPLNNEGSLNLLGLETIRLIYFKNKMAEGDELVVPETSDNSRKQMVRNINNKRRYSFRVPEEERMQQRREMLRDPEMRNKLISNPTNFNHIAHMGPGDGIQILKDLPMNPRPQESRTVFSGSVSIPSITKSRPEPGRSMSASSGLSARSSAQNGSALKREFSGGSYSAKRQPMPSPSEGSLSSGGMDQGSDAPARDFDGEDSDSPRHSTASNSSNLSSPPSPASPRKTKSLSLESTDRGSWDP
Compound	remaining activity
Cc1nc2cc3nc(-c4cccs4)cnc3cc2n1C	109%
Nc1cccc(-c2cc3c(Oc4cccc(O)c4)ncnc3[nH]2)c1	87.7%
C[C@@H]1CCN(C(=O)CC#N)C[C@@H]1N(C)c1ncnc2[nH]ccc12	110%
COc1cc2ncnc(Nc3cccc(Cl)c3)c2cc1OC	82.2%
CCN(CC)CCNC(=O)c1c(C)[nH]c(/C=C2\C(=O)Nc3ccc(F)cc32)c1C	89.5%
COc1cc2c(cc1OC)-c1[nH]nc(Nc3cccc(F)c3)c1C2	119%
O=C1C(Cl)=C(N2C(=O)CCC2=O)C(=O)c2ccccc21	103%
CN(C)C[C@H]1CCn2c(c(C3=C(c4cn(C)c5ccccc45)C(=O)NC3=O)c3ccccc32)C1	98.1%
CCN(CC)CCNC(=O)c1c(C)[nH]c(/C=C2\C(=O)Nc3ccc(Cl)cc32)c1C	60%
CCN(CC)C(=O)c1ccc(Nc2nc(OCC3CCCCC3)c3[nH]cnc3n2)cc1	90.7%
CCOc1nc(NC(=O)Cc2cc(OC)ccc2OC)cc(N)c1C#N	98.9%
COc1cc2ncnc(Nc3ccc(O)c(Br)c3)c2cc1OC	96.9%
N#Cc1c(NC(=O)c2cccc3ccccc23)sc2c1CCCC2	103%
N#C/C(=C\c1ccc(O)c(O)c1)C(=O)NCc1ccccc1	99.4%
O=C(Nc1cccc(Nc2nccc(Nc3cccc(C(F)(F)F)c3)n2)c1)C1CC1	100%
Ic1cccc(CSc2nnc(-c3ccncc3)o2)c1	98.4%
O=C1c2ccccc2-c2n[nH]c3cccc1c23	102%
Cc1cc2ncc(-c3ccccc3)nc2cc1C	81.2%
CN([C@@H](Cc1ccc(OS(=O)(=O)c2cccc3cnccc23)cc1)C(=O)N1CCN(c2ccccc2)CC1)S(=O)(=O)c1cccc2cnccc12	98.9%
O=c1cc(-c2cccc3c2Sc2ccccc2S3)oc(N2CCOCC2)c1	106%
Cn1nc2c3c(cccc31)C(=O)c1ccccc1-2	106%
Cc1cn(-c2cc(NC(=O)c3ccc(C)c(Nc4nccc(-c5cccnc5)n4)c3)cc(C(F)(F)F)c2)cn1	88.5%
O=C(NC(NC(=S)Nc1ccc(F)c([N+](=O)[O-])c1)C(Cl)(Cl)Cl)C(c1ccccc1)c1ccccc1 (centres unmarked)	111%
c1ccc(-c2cnc(Nc3ccc(OCCN4CCCC4)cc3)s2)cc1	91%

Block 2 — read-out: enzyme activity; action: inhibitor; concentration: 77 µM; reference: untreated
Target: DNA polymerase theta, ATPase domain (POLQ, Homo sapiens, UniProt O75417)
Chain of UniProt O75417 (whole entry, unmodified, looked up): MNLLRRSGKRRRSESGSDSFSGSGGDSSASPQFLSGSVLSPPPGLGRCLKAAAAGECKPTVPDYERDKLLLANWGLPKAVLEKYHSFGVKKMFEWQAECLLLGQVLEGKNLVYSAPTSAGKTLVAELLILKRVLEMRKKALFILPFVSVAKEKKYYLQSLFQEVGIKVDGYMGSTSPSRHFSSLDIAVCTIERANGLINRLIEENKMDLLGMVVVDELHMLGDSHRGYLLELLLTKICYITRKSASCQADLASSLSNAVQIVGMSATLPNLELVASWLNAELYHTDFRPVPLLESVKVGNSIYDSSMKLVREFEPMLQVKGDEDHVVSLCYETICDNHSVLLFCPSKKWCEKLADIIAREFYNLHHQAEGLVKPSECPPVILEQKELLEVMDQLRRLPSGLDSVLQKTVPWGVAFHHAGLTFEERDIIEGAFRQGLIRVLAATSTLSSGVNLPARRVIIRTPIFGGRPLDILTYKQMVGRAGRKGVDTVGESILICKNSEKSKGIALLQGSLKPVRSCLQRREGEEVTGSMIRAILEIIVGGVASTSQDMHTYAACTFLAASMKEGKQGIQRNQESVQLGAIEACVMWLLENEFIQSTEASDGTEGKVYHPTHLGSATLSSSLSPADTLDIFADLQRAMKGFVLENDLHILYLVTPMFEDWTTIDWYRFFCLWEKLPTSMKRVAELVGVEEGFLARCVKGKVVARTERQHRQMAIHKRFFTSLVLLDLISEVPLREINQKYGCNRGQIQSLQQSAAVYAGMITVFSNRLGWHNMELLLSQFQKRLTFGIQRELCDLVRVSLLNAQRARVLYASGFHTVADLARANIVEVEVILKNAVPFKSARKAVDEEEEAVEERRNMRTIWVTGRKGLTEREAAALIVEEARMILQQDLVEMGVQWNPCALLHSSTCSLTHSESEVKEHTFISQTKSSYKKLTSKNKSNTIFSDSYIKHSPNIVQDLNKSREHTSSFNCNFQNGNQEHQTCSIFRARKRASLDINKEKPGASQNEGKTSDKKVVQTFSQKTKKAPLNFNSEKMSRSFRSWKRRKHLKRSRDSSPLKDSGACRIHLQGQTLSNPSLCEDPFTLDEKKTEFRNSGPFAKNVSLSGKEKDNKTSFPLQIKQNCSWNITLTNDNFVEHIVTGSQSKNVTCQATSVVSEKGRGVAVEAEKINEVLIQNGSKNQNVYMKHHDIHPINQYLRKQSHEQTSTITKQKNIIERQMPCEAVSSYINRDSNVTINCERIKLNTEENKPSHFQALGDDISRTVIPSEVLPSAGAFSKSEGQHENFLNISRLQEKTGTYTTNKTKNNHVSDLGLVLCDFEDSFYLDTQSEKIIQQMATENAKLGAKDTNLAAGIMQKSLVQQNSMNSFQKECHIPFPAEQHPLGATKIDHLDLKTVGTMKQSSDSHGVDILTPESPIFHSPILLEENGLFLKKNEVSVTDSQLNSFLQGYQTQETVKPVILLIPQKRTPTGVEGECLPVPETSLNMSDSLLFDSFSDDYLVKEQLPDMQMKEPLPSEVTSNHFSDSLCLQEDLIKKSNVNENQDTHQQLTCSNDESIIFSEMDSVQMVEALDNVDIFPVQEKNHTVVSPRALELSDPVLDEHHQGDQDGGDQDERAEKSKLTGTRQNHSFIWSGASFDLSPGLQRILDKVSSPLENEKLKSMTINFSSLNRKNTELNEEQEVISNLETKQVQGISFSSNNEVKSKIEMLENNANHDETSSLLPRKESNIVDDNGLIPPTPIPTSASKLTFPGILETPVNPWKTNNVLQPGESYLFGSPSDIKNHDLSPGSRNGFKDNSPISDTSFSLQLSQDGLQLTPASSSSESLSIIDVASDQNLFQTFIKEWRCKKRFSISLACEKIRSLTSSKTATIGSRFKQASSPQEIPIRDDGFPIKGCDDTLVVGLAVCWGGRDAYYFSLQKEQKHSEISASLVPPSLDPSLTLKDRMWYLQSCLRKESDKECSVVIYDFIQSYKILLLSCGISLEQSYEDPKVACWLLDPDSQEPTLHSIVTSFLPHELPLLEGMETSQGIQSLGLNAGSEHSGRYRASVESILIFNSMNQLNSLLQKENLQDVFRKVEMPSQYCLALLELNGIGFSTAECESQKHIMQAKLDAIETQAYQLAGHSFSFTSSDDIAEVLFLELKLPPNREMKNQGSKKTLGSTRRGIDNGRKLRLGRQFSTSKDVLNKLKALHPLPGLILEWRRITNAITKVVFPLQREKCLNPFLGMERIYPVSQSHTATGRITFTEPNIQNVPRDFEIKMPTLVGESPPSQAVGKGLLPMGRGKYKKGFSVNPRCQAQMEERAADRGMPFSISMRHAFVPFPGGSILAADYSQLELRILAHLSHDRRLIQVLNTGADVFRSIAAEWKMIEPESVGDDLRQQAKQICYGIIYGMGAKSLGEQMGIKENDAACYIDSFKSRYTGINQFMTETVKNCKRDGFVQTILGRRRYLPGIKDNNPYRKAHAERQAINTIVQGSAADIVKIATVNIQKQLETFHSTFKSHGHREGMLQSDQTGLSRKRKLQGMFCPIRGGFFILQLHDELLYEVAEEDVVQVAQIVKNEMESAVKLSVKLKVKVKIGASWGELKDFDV
SMILES	remaining activity
CC(C)(C)c1cc(/C=C(\C#N)C(N)=S)cc(C(C)(C)C)c1O	99.8%
OCCOc1ccc(/C(=C(/CCCl)c2ccccc2)c2ccccc2)cc1	101%
Cc1ncc([N+](=O)[O-])n1CC(O)CCl (centres unmarked)	99.6% and 96.1%
Cc1cc(=O)[nH]c(=S)[nH]1	86.7%
COc1ccccc1OCC(O)COC(N)=O (centres unmarked)	89.4% and 98.7%
O=C(O)c1cc2cc(F)ccc2[nH]1	83.6%
C=C(C)[C@@H]1CC[C@]2(C(=O)O)CC[C@]3(C)[C@H](CC[C@@H]4[C@@]5(C)CC[C@H](O)C(C)(C)[C@@H]5CC[C@]43C)[C@@H]12	108% and 101%
CC1COc2c(N3CCN(C)CC3)c(F)cc3c(=O)c(C(=O)O)cn1c23 (racemic)	99.8%
COc1cc(NS(C)(=O)=O)ccc1Nc1c2ccccc2nc2ccccc12	91.4%
NCCS(=O)(=O)O	108%
N#CC(C#N)=C(N)/C(C#N)=C/c1ccc(O)cc1	106%

Block 3 — cell line: normal organoid sample F; technique: CellTiter-Glo; host: human; matrix: normal-adjacent epithelium; concentration: 1 µM; reference: DMSO
Structure (SMILES)	viability
Cn1cncc1[C@@](O)(COc1ccc(C#N)cc1-c1ccc(OC(F)(F)F)cc1)c1ccc(C#N)cc1	113% and 102%
Cc1noc([C@H]2C[C@@H](c3ccc(C(F)(F)F)cc3)CN(C(=O)N3CCS(=O)(=O)C3)C2)n1	114% and 87.1%
CN1CCN(c2cnc3c(C4CCN(C(=O)c5ccc(OC(F)(F)F)cc5N)CC4)ncnc3c2)CC1	109% and 93.9%
COc1cc(-c2cn(C3CCc4c(F)cccc4N(CC(F)(F)F)C3=O)nn2)ccc1-n1cnc(C)c1 (centres unmarked)	106% and 110%
CO[C@H]1CC[C@H](CNc2ccc(S(=O)(=O)NC(=O)c3ccc(N4CCN(CC5=C(c6ccc(Cl)cc6)CC(C)(C)CC5)CC4)cc3Oc3cnc4[nH]ccc4c3)cc2[N+](=O)[O-])CC1	59.6% and 73.4%
C[C@@H](c1cccc(C#N)c1)n1cc(Cl)cc(C(N)=O)c1=N	76.8% and 104%
Cc1nc(C2CCN(C(=O)c3ccc(OC(F)(F)F)cc3N)CC2)c2ncc(N3CCN(C)CC3)cc2n1	78% and 139%
CCC(=O)N[C@@H]1CC[C@H](C(=O)N(C)c2ccc(-c3nc4ccccc4o3)cc2)C1	112% and 98.9%
Cc1cn(-c2cc(NC(=O)c3ccc4c(c3)CN(c3cncnc3)C[C@@H]4C)cc(C(F)(F)F)c2)cn1	93.9% and 119%
Cn1cnc2c(F)c(Nc3ccc(Br)cc3Cl)c(C(=O)NOCCO)cc21	54.5% and 78.3%
CN1CCN(Cc2ccc(Nc3ncc(Cl)c(Nc4ccccc4S(=O)(=O)N(C)C)n3)cc2)CC1	0.5% and 0.552%
C[C@@H](NC(=O)Nc1cc2[nH]ncc2c(CO)n1)c1ccccc1	103% and 96.2%

Block 4 — concentration: 1 µM
Compound: COc1ccc2[nH]c3c4[nH]c5ccc(OC)cc5c4c4c(c3c2c1)C(=O)NC4=O
target	technique	measured	setting	reference	remaining binding [%]
MUSK (Homo sapiens, UniProt O15146)	competitive binding panel			vehicle	83
EPHB1 (Homo sapiens, UniProt P54762)	competitive binding panel			vehicle	77
PRKACB (Homo sapiens, UniProt P22694)	competitive binding		PKAC-beta		89
PDGFRB (Homo sapiens, UniProt P09619)	competitive binding panel			vehicle	0.1
PHKG2 (Homo sapiens, UniProt P15735)	competitive binding panel			vehicle	52
SRMS (Homo sapiens, UniProt Q9H3Y6)	competitive binding panel			vehicle	100
ABL1 (Homo sapiens, UniProt P00519, F317I)	competitive binding scan				73
SBK1 (Homo sapiens, UniProt Q52WX2)	competitive binding panel			vehicle	95
ULK1 (Homo sapiens, UniProt O75385)	competitive binding panel			vehicle	100
CDK7 (Homo sapiens, UniProt P50613)	competitive binding panel			vehicle	56
Myosin-IIIa (MYO3A, Homo sapiens, UniProt Q8NEV4)	competitive binding panel			vehicle	81
IKBKE (Homo sapiens, UniProt Q14164)	competitive binding		IKK-epsilon		48
PRPF4B (Homo sapiens, UniProt Q13523)	competitive binding panel	PRP4		vehicle	97
MAP4K1 (Homo sapiens, UniProt Q92918)	competitive binding panel	HPK1		vehicle	90
MAPK11 (Homo sapiens, UniProt Q15759)	competitive binding		p38-beta		100

A few entries again (block 4):
target	technique	measured	setting	reference	remaining binding [%]
EPHB1 (Homo sapiens, UniProt P54762)	competitive binding panel			vehicle	77
PRKACB (Homo sapiens, UniProt P22694)	competitive binding		PKAC-beta		89
PDGFRB (Homo sapiens, UniProt P09619)	competitive binding panel			vehicle	0.1
PHKG2 (Homo sapiens, UniProt P15735)	competitive binding panel			vehicle	52
SRMS (Homo sapiens, UniProt Q9H3Y6)	competitive binding panel			vehicle	100
ABL1 (Homo sapiens, UniProt P00519, F317I)	competitive binding scan				73
SBK1 (Homo sapiens, UniProt Q52WX2)	competitive binding panel			vehicle	95
ULK1 (Homo sapiens, UniProt O75385)	competitive binding panel			vehicle	100
CDK7 (Homo sapiens, UniProt P50613)	competitive binding panel			vehicle	56
